{"data": "Experimental data collected from several papers", "note": "Parts stem from different laboratories: compare values within a part only. Changes are numbered by the printed parent chain."}
{"data": "Series 1", "target": "Sal-like protein 4, full length isoform A (SALL4, Homo sapiens, UniProt Q9UJQ4, residues 1-1053)", "method": "universal PBM", "form": "double-stranded DNA, one strand shown", "sample": "in vitro", "tested at": "600 nM", "notes": "8-mer, flanks averaged, mean of replicates", "direction": "higher = stronger binding", "sequence of UniProt Q9UJQ4 (whole entry, looked up)": "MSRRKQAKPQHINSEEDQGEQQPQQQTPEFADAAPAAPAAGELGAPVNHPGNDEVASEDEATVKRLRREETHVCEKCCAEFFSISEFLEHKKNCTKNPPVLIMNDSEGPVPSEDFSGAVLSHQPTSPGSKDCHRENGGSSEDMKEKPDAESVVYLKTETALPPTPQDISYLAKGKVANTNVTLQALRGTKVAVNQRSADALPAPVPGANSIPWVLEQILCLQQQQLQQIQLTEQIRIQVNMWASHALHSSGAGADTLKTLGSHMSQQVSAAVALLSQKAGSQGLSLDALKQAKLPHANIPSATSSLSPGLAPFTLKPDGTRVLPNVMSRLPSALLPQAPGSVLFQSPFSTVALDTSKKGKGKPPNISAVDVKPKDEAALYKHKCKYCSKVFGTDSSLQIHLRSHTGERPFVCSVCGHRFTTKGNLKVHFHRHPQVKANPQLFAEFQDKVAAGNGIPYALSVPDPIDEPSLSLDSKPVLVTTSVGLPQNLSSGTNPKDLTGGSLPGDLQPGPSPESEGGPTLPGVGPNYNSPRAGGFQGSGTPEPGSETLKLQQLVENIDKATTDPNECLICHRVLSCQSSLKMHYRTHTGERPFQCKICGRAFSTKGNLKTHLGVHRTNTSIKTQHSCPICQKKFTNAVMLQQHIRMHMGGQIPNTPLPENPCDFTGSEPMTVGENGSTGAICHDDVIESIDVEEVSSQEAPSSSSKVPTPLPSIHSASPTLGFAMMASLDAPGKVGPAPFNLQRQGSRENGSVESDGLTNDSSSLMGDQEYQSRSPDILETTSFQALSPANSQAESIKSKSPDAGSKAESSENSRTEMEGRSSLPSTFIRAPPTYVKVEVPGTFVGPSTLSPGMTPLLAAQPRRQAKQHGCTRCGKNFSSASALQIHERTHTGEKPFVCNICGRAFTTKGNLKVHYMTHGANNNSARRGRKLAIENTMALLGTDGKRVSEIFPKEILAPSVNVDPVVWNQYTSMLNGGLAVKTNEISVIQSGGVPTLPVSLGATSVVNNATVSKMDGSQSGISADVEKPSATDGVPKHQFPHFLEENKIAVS"}
{"Sequence": "CTTGCAGC", "E-score": -0.157}
{"Sequence": "CTCGTAAG", "E-score": 0.0111}
{"Sequence": "ATCCGGTG", "E-score": -0.137}
{"Sequence": "ATGAGCGC", "E-score": -0.0677}
{"Sequence": "CAGCTTTC", "E-score": -0.202}
{"Sequence": "ACCGCGTG", "E-score": -0.381}
{"Sequence": "ACCGCGCG", "E-score": -0.265}
{"Sequence": "ATGGGGCG", "E-score": -0.185}
{"Sequence": "ATAATCCA", "E-score": 0.284}
{"data": "Series 2", "target": "CCND1, cyclin fold, Cln2 fusion (human)", "method": "yeast growth competition, sequencing", "sample": "yeast", "notes": "weak parent motif", "reference": "not given", "direction": "higher = stronger binding", "parent": "PKN2 docking peptide (human); DSTVTKLDFDLEP"}
{"Change": "DSTVTKLDFALEP [D10A]", "normalised enrichment score": 0.491}
{"Change": "DSAVTKLDFDLEP [T3A]", "normalised enrichment score": 0.899}
{"Change": "DSTVTKADFDLEP [L7A]", "normalised enrichment score": 0.125}
{"Change": "ASTVTKLDFDLEP [D1A]", "normalised enrichment score": 0.539}
{"Change": "DSTVTKLDFDAEP [L11A]", "normalised enrichment score": 0.836}
{"Change": "DATVTKLDFDLEP [S2A]", "normalised enrichment score": 0.686}
{"data": "Series 3", "target": "CREB3, bZIP domain (human)", "method": "DHFR protein complementation", "sample": "yeast", "notes": "single substitutions, most at no-binding floor", "reference": "wild-type JUN-FOS pair", "direction": "higher = stronger binding", "parent": "JUN, bZIP domain (human); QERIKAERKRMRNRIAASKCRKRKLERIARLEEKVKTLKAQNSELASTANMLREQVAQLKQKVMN; partner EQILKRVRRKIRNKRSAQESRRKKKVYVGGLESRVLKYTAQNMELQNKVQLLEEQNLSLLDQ"}
{"Change": "E44H", "binding fitness [natural log]": -1.49}
{"Change": "K34L", "binding fitness [natural log]": -1.39}
{"Change": "V35G", "binding fitness [natural log]": -1.47}
{"Change": "T37S", "binding fitness [natural log]": -1.27}
{"Change": "V56A", "binding fitness [natural log]": -1.53}
{"Change": "A49Y", "binding fitness [natural log]": -1.36}
{"Change": "E33A", "binding fitness [natural log]": -1.38}
{"Change": "V56Y", "binding fitness [natural log]": -1.48}
{"Change": "R30F", "binding fitness [natural log]": -1.31}
{"Change": "A29Y", "binding fitness [natural log]": -1.18}
{"Change": "K34H", "binding fitness [natural log]": -1.58}
{"Change": "A40L", "binding fitness [natural log]": -1.45}
{"data": "Other studies, line by line"}
{"Substance": "PhoQ, residues 284 288 289 292 302 303 TTCLQL", "target": "PhoP, residues 12 14 15 18 19 LYHSL (Escherichia coli, UniProt P23836)", "assay": "Sort-seq, refers to: YFP reporter", "system": "E. coli", "setting": "PhoQ-PhoP variant library, with: 10 µM Mg2+", "how to read": "reference: high Mg2+ state, higher = stronger signaling", "endpoint": "fold induction", "value": 3.23}
{"note": "Repeated from above (series 3):"}
{"Change": "A49Y", "binding fitness [natural log]": -1.36}
{"Change": "E33A", "binding fitness [natural log]": -1.38}
{"Change": "V56Y", "binding fitness [natural log]": -1.48}
